Measurements pooled from the literature.
Protocols differ between the studies behind these lines. Values joined by “and” are separate records of one study, mostly repeats; a detail may differ. ± marks the error that the study gave.
MAPK8: Mitogen-activated protein kinase 8 (MAPK8, Homo sapiens, UniProt P45983)
Sequence of UniProt P46089 (whole entry, unmodified, looked up): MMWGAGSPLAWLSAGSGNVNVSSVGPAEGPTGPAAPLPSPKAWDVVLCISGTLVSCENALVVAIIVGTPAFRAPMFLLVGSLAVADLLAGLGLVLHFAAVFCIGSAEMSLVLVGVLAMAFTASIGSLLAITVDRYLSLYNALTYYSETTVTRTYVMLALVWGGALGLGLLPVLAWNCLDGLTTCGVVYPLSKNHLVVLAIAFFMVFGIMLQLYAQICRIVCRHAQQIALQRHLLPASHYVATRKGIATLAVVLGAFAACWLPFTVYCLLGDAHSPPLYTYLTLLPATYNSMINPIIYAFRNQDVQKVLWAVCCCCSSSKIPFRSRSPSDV
Sequence of UniProt Q8H1R0 (whole entry, looked up): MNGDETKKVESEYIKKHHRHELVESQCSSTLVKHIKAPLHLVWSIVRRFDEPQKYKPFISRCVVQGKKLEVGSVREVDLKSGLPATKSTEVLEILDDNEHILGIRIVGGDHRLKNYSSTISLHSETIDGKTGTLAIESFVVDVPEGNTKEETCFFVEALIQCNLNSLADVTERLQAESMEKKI
Sequence of UniProt P45983 (whole entry, looked up): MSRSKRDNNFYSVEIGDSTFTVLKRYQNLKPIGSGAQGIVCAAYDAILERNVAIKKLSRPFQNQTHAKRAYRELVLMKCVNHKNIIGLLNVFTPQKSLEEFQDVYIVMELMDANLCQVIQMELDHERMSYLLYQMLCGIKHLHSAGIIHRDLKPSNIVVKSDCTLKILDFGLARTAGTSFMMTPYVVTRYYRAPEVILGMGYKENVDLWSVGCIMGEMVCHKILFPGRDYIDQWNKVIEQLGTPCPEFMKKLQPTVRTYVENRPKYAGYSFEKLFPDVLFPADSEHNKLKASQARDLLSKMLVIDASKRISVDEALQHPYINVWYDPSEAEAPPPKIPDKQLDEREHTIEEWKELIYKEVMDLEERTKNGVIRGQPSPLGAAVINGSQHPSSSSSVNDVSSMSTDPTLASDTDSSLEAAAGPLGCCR
Sequence of UniProt Q9NSD7 (whole entry, unmodified, looked up): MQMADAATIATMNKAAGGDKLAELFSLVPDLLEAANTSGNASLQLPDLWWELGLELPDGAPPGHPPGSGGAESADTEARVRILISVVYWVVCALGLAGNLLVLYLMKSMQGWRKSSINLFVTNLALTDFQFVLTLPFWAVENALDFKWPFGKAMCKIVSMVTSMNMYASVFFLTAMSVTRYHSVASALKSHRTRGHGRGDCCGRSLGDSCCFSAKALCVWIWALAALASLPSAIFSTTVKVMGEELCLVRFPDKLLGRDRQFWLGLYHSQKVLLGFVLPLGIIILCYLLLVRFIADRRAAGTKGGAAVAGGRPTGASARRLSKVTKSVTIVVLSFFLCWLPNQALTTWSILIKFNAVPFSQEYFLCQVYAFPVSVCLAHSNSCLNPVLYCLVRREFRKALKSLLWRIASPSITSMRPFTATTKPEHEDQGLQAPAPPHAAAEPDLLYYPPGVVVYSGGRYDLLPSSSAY
Sequence of UniProt O75385 (whole entry, looked up): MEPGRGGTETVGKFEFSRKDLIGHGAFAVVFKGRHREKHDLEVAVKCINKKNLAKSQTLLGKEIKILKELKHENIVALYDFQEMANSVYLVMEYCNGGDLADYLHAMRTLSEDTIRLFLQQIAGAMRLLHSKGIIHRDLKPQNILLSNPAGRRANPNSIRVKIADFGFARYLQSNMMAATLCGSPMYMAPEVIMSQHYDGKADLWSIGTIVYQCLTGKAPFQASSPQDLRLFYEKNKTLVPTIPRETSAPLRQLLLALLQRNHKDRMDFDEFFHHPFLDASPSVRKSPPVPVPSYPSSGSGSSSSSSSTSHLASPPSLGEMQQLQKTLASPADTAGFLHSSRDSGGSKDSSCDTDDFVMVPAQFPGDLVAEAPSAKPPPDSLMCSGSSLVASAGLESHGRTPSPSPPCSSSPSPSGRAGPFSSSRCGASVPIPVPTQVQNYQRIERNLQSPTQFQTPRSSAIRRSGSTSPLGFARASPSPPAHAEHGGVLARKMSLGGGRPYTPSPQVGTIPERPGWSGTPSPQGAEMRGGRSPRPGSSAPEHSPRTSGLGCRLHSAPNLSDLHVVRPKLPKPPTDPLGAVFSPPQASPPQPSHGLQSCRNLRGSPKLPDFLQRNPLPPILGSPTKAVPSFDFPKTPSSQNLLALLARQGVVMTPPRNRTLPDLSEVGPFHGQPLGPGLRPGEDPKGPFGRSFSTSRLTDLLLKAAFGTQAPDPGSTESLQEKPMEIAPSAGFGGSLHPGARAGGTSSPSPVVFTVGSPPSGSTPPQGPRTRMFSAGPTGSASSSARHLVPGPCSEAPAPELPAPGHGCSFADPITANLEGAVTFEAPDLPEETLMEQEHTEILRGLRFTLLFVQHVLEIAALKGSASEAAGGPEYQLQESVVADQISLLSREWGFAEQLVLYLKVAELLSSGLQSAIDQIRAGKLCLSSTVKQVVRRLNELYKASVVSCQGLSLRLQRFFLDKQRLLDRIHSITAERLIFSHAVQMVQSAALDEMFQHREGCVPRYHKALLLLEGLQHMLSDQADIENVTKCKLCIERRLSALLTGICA
Sequence of UniProt P05187 (whole entry, looked up): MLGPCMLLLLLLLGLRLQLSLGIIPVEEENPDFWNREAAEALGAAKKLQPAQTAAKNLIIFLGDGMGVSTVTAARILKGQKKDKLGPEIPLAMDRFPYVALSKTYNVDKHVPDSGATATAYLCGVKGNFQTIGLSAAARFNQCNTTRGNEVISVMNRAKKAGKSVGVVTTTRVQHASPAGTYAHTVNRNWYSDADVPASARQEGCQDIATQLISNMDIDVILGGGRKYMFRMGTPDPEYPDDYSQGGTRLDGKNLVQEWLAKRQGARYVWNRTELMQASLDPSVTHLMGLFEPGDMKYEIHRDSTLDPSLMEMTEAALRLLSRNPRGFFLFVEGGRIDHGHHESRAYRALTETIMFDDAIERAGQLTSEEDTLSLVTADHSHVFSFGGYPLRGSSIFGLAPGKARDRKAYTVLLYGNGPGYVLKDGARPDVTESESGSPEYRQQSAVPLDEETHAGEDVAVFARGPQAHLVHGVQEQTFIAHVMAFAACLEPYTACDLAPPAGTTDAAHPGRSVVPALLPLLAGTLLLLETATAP
Sequence of UniProt Q9HB29 (whole entry, looked up): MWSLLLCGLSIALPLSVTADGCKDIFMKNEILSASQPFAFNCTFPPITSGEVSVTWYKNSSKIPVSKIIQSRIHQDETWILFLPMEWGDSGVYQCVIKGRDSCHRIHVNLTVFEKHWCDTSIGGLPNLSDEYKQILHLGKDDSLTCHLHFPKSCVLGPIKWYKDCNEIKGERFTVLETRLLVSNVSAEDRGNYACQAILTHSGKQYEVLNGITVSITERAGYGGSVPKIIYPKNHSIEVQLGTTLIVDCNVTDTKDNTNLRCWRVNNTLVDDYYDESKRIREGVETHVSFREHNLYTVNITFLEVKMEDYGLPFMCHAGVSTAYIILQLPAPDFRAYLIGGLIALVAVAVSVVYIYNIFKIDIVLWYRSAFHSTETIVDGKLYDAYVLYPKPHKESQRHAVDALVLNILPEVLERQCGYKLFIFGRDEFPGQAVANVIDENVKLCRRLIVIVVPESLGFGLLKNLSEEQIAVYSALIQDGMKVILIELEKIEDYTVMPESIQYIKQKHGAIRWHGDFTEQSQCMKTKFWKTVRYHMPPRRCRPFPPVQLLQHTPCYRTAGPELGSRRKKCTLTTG
Sequence of UniProt Q6HA09 (whole entry, looked up): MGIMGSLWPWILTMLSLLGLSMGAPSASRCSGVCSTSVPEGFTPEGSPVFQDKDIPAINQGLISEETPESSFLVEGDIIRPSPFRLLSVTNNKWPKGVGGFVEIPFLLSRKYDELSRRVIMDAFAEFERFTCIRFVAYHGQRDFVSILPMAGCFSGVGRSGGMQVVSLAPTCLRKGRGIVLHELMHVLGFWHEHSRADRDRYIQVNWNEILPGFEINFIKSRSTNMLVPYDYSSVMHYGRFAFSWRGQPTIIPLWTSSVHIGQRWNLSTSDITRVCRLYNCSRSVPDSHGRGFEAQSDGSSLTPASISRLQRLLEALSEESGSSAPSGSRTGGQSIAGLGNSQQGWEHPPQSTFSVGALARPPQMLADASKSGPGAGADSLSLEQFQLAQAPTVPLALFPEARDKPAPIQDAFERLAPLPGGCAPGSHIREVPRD
Sequence of UniProt Q6V1X1 (whole entry, looked up): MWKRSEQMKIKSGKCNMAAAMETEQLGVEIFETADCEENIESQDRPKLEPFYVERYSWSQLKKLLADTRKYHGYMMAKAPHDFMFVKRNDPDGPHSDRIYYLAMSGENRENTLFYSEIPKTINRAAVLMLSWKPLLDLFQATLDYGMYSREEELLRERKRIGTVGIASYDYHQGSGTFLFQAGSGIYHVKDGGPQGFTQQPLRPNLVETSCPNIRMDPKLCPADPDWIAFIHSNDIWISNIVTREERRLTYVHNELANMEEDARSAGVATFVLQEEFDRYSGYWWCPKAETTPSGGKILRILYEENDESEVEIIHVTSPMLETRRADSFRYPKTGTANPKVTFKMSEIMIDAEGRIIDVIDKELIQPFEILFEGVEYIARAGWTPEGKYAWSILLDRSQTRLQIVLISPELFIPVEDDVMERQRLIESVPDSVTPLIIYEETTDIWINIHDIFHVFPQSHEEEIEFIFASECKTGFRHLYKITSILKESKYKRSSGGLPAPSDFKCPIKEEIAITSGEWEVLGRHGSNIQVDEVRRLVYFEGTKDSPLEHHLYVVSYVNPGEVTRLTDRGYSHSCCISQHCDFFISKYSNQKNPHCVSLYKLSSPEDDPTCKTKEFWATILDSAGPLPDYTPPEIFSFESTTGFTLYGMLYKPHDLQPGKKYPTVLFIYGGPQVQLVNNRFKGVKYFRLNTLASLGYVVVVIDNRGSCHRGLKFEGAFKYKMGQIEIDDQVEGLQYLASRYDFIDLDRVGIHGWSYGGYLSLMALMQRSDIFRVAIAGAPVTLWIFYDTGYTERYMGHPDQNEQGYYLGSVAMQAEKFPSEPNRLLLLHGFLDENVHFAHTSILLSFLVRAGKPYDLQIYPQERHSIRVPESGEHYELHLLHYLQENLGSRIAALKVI

SMILES | target | assay | test system | conditions | how to read | quantity | value
CN(C(=O)OCc1cc(C(=O)O)ccc1OP(=O)(O)O)C(=O)c1ccc(N2C(=S)N(c3ccc(C#N)c(C(F)(F)F)c3)C(=O)C2(C)C)cc1F | Alkaline phosphatase, placental type (Homo sapiens, UniProt P05187) | substrate | – | 100 µM, pH 7.6, 37 °C | – | drug formation rate | 4.16 pmol/min
CC(C)(C)OC(=O)N1CCN(CC(OCc2ccc(Cl)cc2)c2ccc(Cl)cc2Cl)CC1 (stereo not shown) | ULK1 (Homo sapiens, UniProt O75385) | enzyme activity, inhibitor, ADP detection | – | 0.1 µM | – | activity vs control | 133%
CCC1(CC)C(=O)N(c2ccc(CC(=O)O)cc2)C1=O.O=C(O)C(F)(F)F | Dipeptidyl peptidase 8 (Homo sapiens, UniProt Q6V1X1) | inhibitor | – | together with: GP-AMC substrate | reference: Ki' DPP9 over Ki' DPP8 | selectivity ratio | 2
Fc1ccc(Nc2nc(NC3CCCCC3)c3cc(Br)ccc3n2)cc1F | ADRB2 (Homo sapiens, UniProt P07550) | β-arrestin2 recruitment, PathHunter and GloSensor | – | – | reference: GloSensor IC50 over PathHunter IC50 | bias factor | 903 fold
CC(C)Oc1cc(Cl)ccc1CNc1cc(-c2ccccc2)nc2ncnn12 | GPR3 (Homo sapiens, UniProt P46089, V155A) | cAMP level, cAMP GloSensor | – | 1 nM | higher = more cAMP | cAMP luminescence | 32300 a.u. and 26900 a.u. and 24100 a.u. and 30300 a.u.
CC[C@H](C)[C@@H]1NC(=O)[C@H](Cc2ccccc2)NC(=O)[C@H](CCC(=O)O)NC(=O)[C@H](CCCNC(=N)N)NC(=O)CNC(=O)[C@@H](NC(=O)[C@H](CC(C)C)NC(=O)[C@H](CCCNC(=N)N)NC(=O)[C@@H](NC(=O)CNC(=O)[C@H](Cc2ccc(O)cc2)NC(=O)[C@@H]2CCCN2C(=O)[C@H](C)NC(=O)[C@H](C)NC(=O)[C@@H](N)CCCNC(=N)N)C(C)C)CSSC[C@@H]2NC(=O)[C@@H](NC(=O)[C@H](CO)NC(=O)[C@H](CO)NC(=O)[C@H](CO)NC(=O)[C@H](CC(C)C)NC(=O)CNC(=O)[C@H](C)NC(=O)[C@H](CC(C)C)NC(=O)[C@@H](NC(=O)[C@@H](N)CC(=O)O)C(C)C)CSSC[C@H](NC(=O)CNC(=O)[C@H](Cc3c[nH]c4ccccc34)NC(=O)[C@H](CCCCN)NC2=O)C(=O)N[C@@H](CO)C(=O)N[C@@H](CCCCN)C(=O)N[C@@H](CO)C(=O)N[C@@H](CCC(=O)O)C(=O)N[C@@H]([C@@H](C)CC)C(=O)N[C@@H](CO)C(=O)N[C@@H](CO)C(=O)N[C@@H](CC(C)C)C(=O)N[C@H](C(=O)O)CSSC[C@@H](C(=O)NCC(=O)NCC(=O)N[C@@H](CO)C(=O)N[C@@H](CCCNC(=N)N)C(=O)N[C@@H](Cc2c[nH]c3ccccc23)C(=O)O)NC(=O)[C@H]([C@@H](C)O)NC(=O)[C@H](Cc2ccccc2)NC(=O)[C@H]([C@@H](C)CC)NC(=O)[C@H](C(C)C)NC(=O)[C@H](C)NC(=O)[C@H](CCCNC(=N)N)NC1=O | RXFP3 (Homo sapiens, UniProt Q9NSD7, L246A) | – | HEK-293T | – | reference: wild type | Emax | 119 ± 5.19%
O=C(CN(Cc1cccc(C(=O)O)c1)Cc1cccc(C(=O)O)c1)NO | Astacin-like metalloendopeptidase (Astl, Mus musculus, UniProt Q6HA09) | enzyme activity, inhibitor, fluorogenic | – | 5 µM | – | remaining activity | 42 ± 3%
O=[N+]([O-])c1cc(Br)cc([N+](=O)[O-])c1NS(=O)(=O)c1ccc(Br)cc1 | PYL10, with HAB1 (Arabidopsis thaliana, UniProt Q8H1R0) | antagonist | – | 200 µM, together with: ABA 5 µM | higher = more HAB1 activity | HAB1 phosphatase activity | 0.103 a.u. and 0.101 a.u. and 0.102 a.u.
CCCCCCCCCCCCC/C=C/C=O | Elongation factor 2, Cys41 (EEF2, Homo sapiens, UniProt P13639) | competitive isoTOP-ABPP | proteome, soluble, MDA-MB-231 | 100 µM, 60 min, together with: iodoacetamide probe | reference: DMSO over compound-treated, higher = stronger cysteine blockade | isoTOP-ABPP competition ratio | 1.3
CC(C)(C)OC(=O)C1=C[C@@](C)(C(=O)OCC#Cc2ccncc2)CCC1=O | MAPK8 | D-peptide binding, inhibitor, FP peptide displacement | – | 50 µM | lower is stronger displacement | fraction bound | 0.255
CC(C)[C@@H]1NC(=O)[C@H](Cc2ccccc2)NC(=O)CSC[C@@H](C(N)=O)NC(=O)[C@H](CCC(=O)O)NC(=O)[C@H](CO)NC(=O)[C@H](Cc2c[nH]c3cccc(Cl)c23)NC(=O)[C@H](C2CCCCC2)NC(=O)[C@H](C(C)C)NC(=O)[C@H](Cc2ccc(O)cc2)NC(=O)[C@H](CC(=O)O)NC(=O)[C@H](Cc2c[nH]c3ccccc23)NC(=O)[C@H](Cc2ccc(N)nc2)NC(=O)[C@H](Cc2c[nH]c3ccc(Cl)cc23)NC(=O)[C@H](CCC(=O)O)NC1=O | Interleukin-1 receptor-like 2 (IL1RL2, Homo sapiens, UniProt Q9HB29) | reporter gene (SEAP), inhibitor, HEK-Blue IL-36R reporter | HEK-Blue IL-36R cells | 0.41 µM, 6 h, together with: IL-36β 30 ng/mL | – | remaining activity | 95%
COC(=O)[C@]1(Cc2ccccc2)C=C(C(=O)OC(C)(C)C)C(=O)CC1 | MAPK8 | D-peptide binding, inhibitor, FP peptide displacement | – | 1000 µM | lower is stronger displacement | fraction bound | -0.0933
C[C@@H]1C[C@H](Nc2ccccc2)c2cc(F)ccc2N1C(=O)c1ccc(C#N)c(Cl)c1 | Ecdysone receptor (Aedes albopictus, UniProt Q9U3Y4) | ligand binding, inhibitor | intact cells | together with: [3H]ponasterone A | direction not given | pIC50 Z-score | 0.68

Excerpt of the above:
SMILES | target | assay | test system | conditions | how to read | quantity | value
CC(C)(C)OC(=O)N1CCN(CC(OCc2ccc(Cl)cc2)c2ccc(Cl)cc2Cl)CC1 (stereo not shown) | ULK1 (Homo sapiens, UniProt O75385) | enzyme activity, inhibitor, ADP detection | – | 0.1 µM | – | activity vs control | 133%
